Experimental data collected from several papers.
Parts stem from different laboratories: compare values within a part only.

Study 1 — method: universal PBM; form: double-stranded DNA, one strand shown; matrix: in vitro; concentration: not given; reading: higher = stronger binding
Target: Sal-like protein 4, full length isoform B (SALL4, Homo sapiens, UniProt Q9UJQ4-2, residues 1-616)
Notes: 8-mer, flanks averaged, mean of replicates
Construct (chain): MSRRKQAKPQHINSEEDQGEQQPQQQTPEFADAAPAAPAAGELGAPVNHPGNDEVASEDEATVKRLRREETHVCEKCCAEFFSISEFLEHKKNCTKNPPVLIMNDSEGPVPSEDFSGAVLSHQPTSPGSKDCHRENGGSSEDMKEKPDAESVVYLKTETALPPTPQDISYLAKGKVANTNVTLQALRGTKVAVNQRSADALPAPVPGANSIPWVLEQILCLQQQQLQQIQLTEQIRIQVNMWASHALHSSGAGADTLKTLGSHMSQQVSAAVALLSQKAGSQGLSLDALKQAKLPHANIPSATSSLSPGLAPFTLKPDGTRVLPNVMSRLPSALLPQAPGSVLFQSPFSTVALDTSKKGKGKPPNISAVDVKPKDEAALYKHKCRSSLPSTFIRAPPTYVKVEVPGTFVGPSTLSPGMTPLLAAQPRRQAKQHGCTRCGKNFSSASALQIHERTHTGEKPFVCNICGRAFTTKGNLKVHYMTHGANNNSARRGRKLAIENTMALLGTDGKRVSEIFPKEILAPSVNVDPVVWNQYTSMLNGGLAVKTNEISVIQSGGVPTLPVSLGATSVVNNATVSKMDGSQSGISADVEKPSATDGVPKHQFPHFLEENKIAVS
Strand	E-score
CCCGAAAA	0.175
ACCTCAAA	0.128
AGATTTTC	0.127
ATCCGAAA	-0.0228
CGACGTGC	-0.153
AACCACTG	-0.0248
GGTCCCGA	-0.389
ATATTGCA	0.323
GCCACTCA	-0.136
CACAGTGA	-0.0597
GGACGTAC	-0.0557
AGATTTTG	0.182
GGAGCTAA	-0.166
AAGGAGCG	-0.177
ACATAGCG	0.177
GGTGGACA	-0.107
CACGCCGG	-0.249
CCTAAGGA	-0.011
TACCCTCA	-0.061
AAGTTATG	0.338
ACGAGCAG	-0.127
TAAGGGCA	-0.0327
GGGGATAC	-0.234
TCACACGA	0.00387

Study 2 — method: RNA Bind-n-Seq; form: RNA; matrix: in vitro; concentration: not given; relative to: input RNA pool; reading: higher = stronger binding
Target: RING finger protein unkempt homolog, zinc fingers 1-6, GST-SBP tag (UNK, Homo sapiens, UniProt Q9C0B0, residues 30-357)
UniProt Q9C0B0, sequence (30-357, looked up): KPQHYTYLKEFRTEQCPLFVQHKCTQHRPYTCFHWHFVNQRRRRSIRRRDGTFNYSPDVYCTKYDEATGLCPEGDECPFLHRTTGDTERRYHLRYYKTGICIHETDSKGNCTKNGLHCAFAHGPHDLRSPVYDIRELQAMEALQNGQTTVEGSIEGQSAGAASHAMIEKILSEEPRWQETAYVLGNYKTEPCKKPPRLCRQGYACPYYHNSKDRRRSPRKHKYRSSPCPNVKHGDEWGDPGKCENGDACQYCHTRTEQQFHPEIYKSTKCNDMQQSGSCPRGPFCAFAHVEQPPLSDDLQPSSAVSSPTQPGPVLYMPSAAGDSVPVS
Notes: RNA with constant flanks, human and mouse sites, ends assumed
Constant ends, left off below: GGGAGUUCUACAGUCCGACGAUC … CAACAGAGGAUUGAGCAUCA
Strand	bound/input enrichment [ratio]
GAUGACAUGUCUGAGCCUGAAUUCAAAAGAGGAGGGACAAGGGCAACCGCGGGGCCCCGAUUAGGUUGGUCUCGAGACUUGGGACAGUCUAACAGUGACUUGGAUAUGCCAUUUGCCAAG	0.165
UAAAUUGUUGGAGUUCUUUUAAGAAGAAUAUAAAUUGAUUAUUUUUUUUAUUUAAAGGGAUAGUUGAUUCCUGGGGUGUUUUGAAAUUAAGUUGGAAUUAAGUUGCUUAAGCAUAUUUAU	0.452
UGGUUUUUGCAGGAAGAAAAAAGAGAAUGCUUUGGAGCUUGUCUCUUUACCUGUUAUGAUCUCUUAAGGCCAGAUGUCGUCCUGGAAACCGCAUGGAGACAUAAUAUCAUGGAUUUCGCC	0.226
UGGAUGACGCUUUGUCAAACACAAAUGAAAUUAAUGGCGAUUCCUCUAGUCUUUCAGAUUAUGUUUGGAAUAUUAAAUGGUCUAUACCAUUAUGCAGUAUUUGAAGAGACACUUGAGAAA	0.273
UCUUGUAGCCUUUGGUUUUUGUUAAUGUAGAGAAACACAGAUUCUUUAUACACUUUGUAAGAUUUACGCCAAACCCCAGCUCUCGAUCUCUUCUUCUCCCUGUGGCCCCUGCGCUGUUGC	0.46
CGAUUUUUUUAUAAAGAGAAGGAAUCUGUGAAUGCCAAAGUUCUUAAGGAUGUUAAAUUUCCUCUUAUGUUGGAUAUGUAUGAACUGUGUACACCAGAACUUCAAGAGAAAAUGGUGUCU	0.345
CUUAUGGCUGCAGAAACAGGAAGUGGCAAAACUGGUGCUUUUAGUAUUCCAGUUAUCCAGAUAGUUUAUGAAACUCUGAAAGACCAACAGGAAGGCAAAAAAGGAAAAACAACAAUUAAA	0.632
CCAGAAGCUGUUGAAGUCUUGCUGAAUUAUGCAUACACGGCUCAGUUGAAAGCUGAUAAGGAAUUAGUAAAAGAUGUUUAUUCUGCAGCCAAGAAGCUGAAGAUGGACCGAGUCAAGCAG	0.391
UGUGUUAAUCCAGAAAUGCAAUAUGUGAAAAUUAAAGAUGUUGCCAGAGGACGAUUACUCAUUUUAAUGGAAGCCAGAUUGUCAGCCCUCUAUAAAUUGGAGAGUGACUAUGAGAUCCUU	0.15
CCCACUGCUAUUCAAGCUCAGGGCUGGCCAGUUGCUCUCAGUGGAUUGGAUAUGGUUGGAGUAGCUCAGACUGGAUCUGGGAAAACAUUAUCUUAUUUGCUGCCUGCCAUUGUACACAUA	0.377
CUCAAGAAAACAUCUUCAAGUGACUAUUCAAUUUUCGACAACUAUUAUAUUCCAGAAAUAACUAGUGUUUUACUACUUCGAUCCUGUAAGACUUUAACCCAUGAGAUCGGACACAUAUUU	1.14

Study 3 — method: protein binding microarray; form: double-stranded DNA, one strand shown; matrix: in vitro; concentration: not given; relative to: not given; reading: higher = stronger binding
Target: Histone acetyltransferase KAT6A, winged helix 2, GST fusion (KAT6A, Homo sapiens, UniProt Q92794, residues 85-181)
Notes: 8-mer, flanks averaged, mean of 2 arrays, mostly near background
Construct (chain): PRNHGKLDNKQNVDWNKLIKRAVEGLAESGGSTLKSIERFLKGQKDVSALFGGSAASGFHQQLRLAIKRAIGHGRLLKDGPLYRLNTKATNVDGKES
Strand	E-score
ACCATTTA	-0.0328
CGTCTTGA	0.105
CTTATATA	-0.115
GTATATCA	0.0232
AGTTAGTA	-0.0772
CTTCCGGC	0.229
CCCGGCGA	0.0362
GAAGGTGC	-0.0631
AAATTCCA	0.0677
GATACCGA	-0.0221
AAACGTAA	-0.126
GGATGAAC	0.0265
ATGGTGTC	0.0114
CTTTGAAC	0.0526
GATGACAA	-0.042
GACTCTCA	-0.181
AACCGCAT	0.156
ACCTAACA	0.0467
AGGCCCCA	-0.107
GTCGTCTA	-0.16

Study 4 — method: RNA Bind-n-Seq; form: RNA; matrix: in vitro; concentration: 200 nM; notes: whole 134-nt RNA, ends assumed; together with: 150 mM KCl; relative to: input library; reading: higher = stronger binding
Target: Fragile X messenger ribonucleoprotein 1, C-terminal low-complexity region (Fmr1, Mus musculus, UniProt P35922)
Constant ends, left off below: GGGAGUUCUACAGUCCGACGAUC … UGGAAUUCUCGGGUGUCAAGG
Strand	log2 enrichment
UAACUUUAGAGGAGGAUCUGAUGGAUAUGGCAGUGGACGUGGGUUUGGGGAUGGCUAUAAUGGGUAUGGAGGAGGACCUGGAGGUGGCAA	0.376
UCCUGUGCUACACAUCGUAUGUACCGAAUCGGGUUUGGGAAAAAAAGGGAAAAAAAGGGAAAGUAUUAUGUUACGCCGUUCGGAUCUGCA	0.0351
GUCCUGUGCUACACAUCGUAUGUACCGAAUCAAACCCCCCCAAACCCAAAUUUUUAAAAAAGUAUUAUGUUACGCCGUUCGGAUCUGCAC	-0.0528
GCAGGAAGUAAAAACAAAUGGAAAUGCUUCGGAUAGUGGCAGGGGGGGGGGUUGCUAAGGAAAGGGUGGGAUGGGAGUGGGUAAAGAGUU	0.293
UGGGAGGUGGAUUUUGUUUAUUUUUUUAGCUCAUUUCCAGGGGUGGGAAUUUUUUUUUAAUAUGUGUCAUCAAUAAAGUUGUUUUUGAAA	0.521
UCCUGUGCUACACAUCGUAUGUACCGAAUCGGGGAAAAAAAGGGGUUUGGGGUUUGGGGAAAGUAUUAUGUUACGCCGUUCGGAUCUGCA	0.843
AAGUCCUGUGCUACACAUCGUAUGUACCGAAUCGGGUGGGAAAAAGGGAAAAAGGGAAAGUAUUAUGUUACGCCGUUCGGAUCUGCACUU	0.382
UCCUGUGCUACACAUCGUAUGUACCGAAUCGGGUUUUUUUGGGAAAAAAAGGGUUUGGGAAAGUAUUAUGUUACGCCGUUCGGAUCUGCA	-0.419
GUCCUGUGCUACACAUCGUAUGUACCGAAUCGGGUUUUUGGGUUUUUUUGGGAAAGGGAAAGUAUUAUGUUACGCCGUUCGGAUCUGCAC	0.00724
UUCACCAGUUUCACUGUGAGCCUCAACGAGCUGGAGACAGGCAUGGAGAAGACCCUGCCACCCACGGACUGCCGCCUGCGCCCUGACAUC	-0.33

Some of these lines once more (study 4):
Strand	log2 enrichment
UAACUUUAGAGGAGGAUCUGAUGGAUAUGGCAGUGGACGUGGGUUUGGGGAUGGCUAUAAUGGGUAUGGAGGAGGACCUGGAGGUGGCAA	0.376
UCCUGUGCUACACAUCGUAUGUACCGAAUCGGGUUUGGGAAAAAAAGGGAAAAAAAGGGAAAGUAUUAUGUUACGCCGUUCGGAUCUGCA	0.0351
GUCCUGUGCUACACAUCGUAUGUACCGAAUCAAACCCCCCCAAACCCAAAUUUUUAAAAAAGUAUUAUGUUACGCCGUUCGGAUCUGCAC	-0.0528
GCAGGAAGUAAAAACAAAUGGAAAUGCUUCGGAUAGUGGCAGGGGGGGGGGUUGCUAAGGAAAGGGUGGGAUGGGAGUGGGUAAAGAGUU	0.293
UGGGAGGUGGAUUUUGUUUAUUUUUUUAGCUCAUUUCCAGGGGUGGGAAUUUUUUUUUAAUAUGUGUCAUCAAUAAAGUUGUUUUUGAAA	0.521
UCCUGUGCUACACAUCGUAUGUACCGAAUCGGGGAAAAAAAGGGGUUUGGGGUUUGGGGAAAGUAUUAUGUUACGCCGUUCGGAUCUGCA	0.843
AAGUCCUGUGCUACACAUCGUAUGUACCGAAUCGGGUGGGAAAAAGGGAAAAAGGGAAAGUAUUAUGUUACGCCGUUCGGAUCUGCACUU	0.382
UCCUGUGCUACACAUCGUAUGUACCGAAUCGGGUUUUUUUGGGAAAAAAAGGGUUUGGGAAAGUAUUAUGUUACGCCGUUCGGAUCUGCA	-0.419
GUCCUGUGCUACACAUCGUAUGUACCGAAUCGGGUUUUUGGGUUUUUUUGGGAAAGGGAAAGUAUUAUGUUACGCCGUUCGGAUCUGCAC	0.00724
